Literature values that unrelated publications cite.
Protocols differ between the studies behind these lines.
UniProt Q8NG66, sequence (whole entry, looked up): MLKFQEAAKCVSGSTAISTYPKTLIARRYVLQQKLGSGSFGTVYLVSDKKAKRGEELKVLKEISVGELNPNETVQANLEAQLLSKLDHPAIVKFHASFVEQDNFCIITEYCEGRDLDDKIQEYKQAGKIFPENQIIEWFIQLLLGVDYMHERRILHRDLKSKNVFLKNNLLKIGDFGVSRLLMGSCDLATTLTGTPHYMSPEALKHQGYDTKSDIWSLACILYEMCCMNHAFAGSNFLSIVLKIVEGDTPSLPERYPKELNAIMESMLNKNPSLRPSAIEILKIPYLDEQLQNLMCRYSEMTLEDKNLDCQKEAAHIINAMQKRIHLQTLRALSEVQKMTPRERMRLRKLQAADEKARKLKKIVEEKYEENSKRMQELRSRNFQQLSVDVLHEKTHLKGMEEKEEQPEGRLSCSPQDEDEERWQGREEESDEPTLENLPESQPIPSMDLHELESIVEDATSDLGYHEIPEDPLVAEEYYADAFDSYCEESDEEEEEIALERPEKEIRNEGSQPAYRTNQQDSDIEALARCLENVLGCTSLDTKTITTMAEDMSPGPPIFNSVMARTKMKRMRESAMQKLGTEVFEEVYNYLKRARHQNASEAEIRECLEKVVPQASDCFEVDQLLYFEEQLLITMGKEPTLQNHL

Structure (SMILES)	target or system	assay	system	setting	scale	quantity	result
CC(C)(O/N=C(\C(=O)N[C@@H]1C(=O)N2C(C(=O)[O-])=C(C[n+]3ccccc3)CS[C@H]12)c1csc(N)n1)C(=O)O	Enterobacter cloacae	–	clinical isolate RKI-No_215/15	–	–	MIC	≤ 2 µg/mL
Cc1cc(Nc2ccc(S(F)(F)(F)(F)F)cc2)n2ncnc2n1	–	–	–	–	–	logD	3
COc1ccc([C@@H]2Sc3ccccc3N(CCN(C)C)C(=O)[C@@H]2OC(C)=O)cc1	–	–	–	–	–	logD	2.22
CC1(C)S[C@@H]2[C@H](NC(=O)[C@H](N)c3ccccc3)C(=O)N2[C@H]1C(=O)O	Acinetobacter baumannii	–	clinical isolate RKI-No_16/16	–	–	MIC	> 16 µg/mL
Nc1cc(C(F)(F)F)c(-c2nc(N3CCOCC3)nc(N3CCOCC3)n2)cn1	Serine/threonine-protein kinase Nek11 (NEK11, Homo sapiens, UniProt Q8NG66)	enzyme activity	–	10 µM	baseline: untreated	remaining activity	100%
C[C@@H]1C[C@H]2[C@@H]3CCC4=CC(=O)C=C[C@]4(C)[C@@]3(F)[C@@H](O)C[C@]2(C)[C@@]1(O)C(=O)CO	–	–	–	pH 2	–	logD	1.9
Cc1ccc(O)c([C@H](CCN(C(C)C)C(C)C)c2ccccc2)c1	–	–	–	–	–	logD	2.38
O=C(O)c1ccc(O)cc1	–	–	–	pH 7.4	–	logD	-1.35
CCOC(=O)C1=C(C)NC(C)=C(C(=O)OC)C1c1cccc([N+](=O)[O-])c1 (stereo not shown)	–	–	–	–	–	logD	3.81
CCOC(=O)c1ccc(O)cc1	–	–	–	pH 7.4	–	logD	2.45
O=C(N1CCN(C(c2ccccc2)c2ccccc2)CC1)n1nnc2ccccc21	–	–	–	–	–	logD	3.6
CCCCCCCCOC(=O)c1ccc(O)cc1	–	–	–	pH 7.4	–	logD	3.96
O=C(OC(C(F)(F)F)C(F)(F)F)N1CCN(Cc2cccc(Oc3ccccc3)c2)CC1	–	–	–	–	–	logD	5

Excerpt of the above:
Structure (SMILES)	target or system	assay	system	setting	scale	quantity	result
Cc1ccc(O)c([C@H](CCN(C(C)C)C(C)C)c2ccccc2)c1	–	–	–	–	–	logD	2.38
